Experimental data gathered from unrelated publications.
Compare with care: the assays were run in different laboratories. ± gives the spread as reported.
Target: Proteinase K (PROK, Engyodontium album, UniProt P06873)

| Structure (SMILES) | test | system | conditions | scale | quantity | value |
| --- | --- | --- | --- | --- | --- | --- |
| CC[C@H](C)[C@H](NC(=O)[C@H](Cc1c[nH]cn1)NC(=O)[C@H](CC(N)=O)NC(=O)[C@H](Cc1ccccc1)NC(=O)[C@H](Cc1ccc(O)cc1)NC(=O)[C@H](CCC(=O)NCCOCCOCCOCCOC)NC(=O)[C@@H](NC(=O)[C@H](CCCNC(=N)N)NC(=O)CNC(=O)[C@H](CO)NC(=O)[C@H](CO)NC(=O)[C@H](CCCNC(=N)N)NC(=O)[C@H](CO)NC(=O)[C@H](CCSC)NC(=O)[C@H](CCCNC(=N)N)NC(=O)[C@H](CCCCN)NC(=O)[C@H](CCC(=O)O)NC(=O)[C@H](Cc1c[nH]c2ccccc12)NC(=O)CNC(=O)[C@@H]1CCCN1C(=O)[C@@H]1CCCN1C(=O)[C@H](CC(C)C)NC(=O)[C@@H](N)CCCCN)C(C)C)C(=O)N[C@H](C(=O)N[C@@H](CC(N)=O)C(=O)N[C@@H](C)C(=O)N[C@@H](CO)C(=O)N[C@@H](CCC(N)=O)C(=O)N[C@@H](Cc1ccccc1)C(=O)N[C@@H](CCC(=O)O)C(=O)N[C@@H](CCCNC(=N)N)C(=O)N1CCC[C@H]1C(=O)N[C@@H](CO)C(=O)NCC(=O)O)[C@@H](C)O | proteolysis, substrate, HPLC |  | room temperature | reference: PEGylated over non-PEGylated variant, negative = more stable | ln rate constant ratio | 0.1 ± 0.3 |
| CC(C)C[C@H](NC(=O)[C@H](CCCCN)NC(=O)[C@H](CCCNC(=N)N)NC(=O)[C@@H](CC(C)C)NC(=O)[C@H](Cc1ccc(C(C)(C)C)cc1)NC(=O)[C@H](CC(=O)O)NC(=O)[C@H](CCCCN)NC(=O)[C@@H](CC(C)C)NC(=O)[C@H](CCCNC(=N)N)NC(=O)[C@H](CCC(N)=O)NC(=O)[C@@H](NC(=O)[C@@H](CC(C)C)NC(=O)[C@H](CCCNC(=N)N)NC(=O)[C@H](CCCCN)NC(=O)[C@H](Cc1ccc(C(C)(C)C)cc1)NC(=O)CN)C(C)C)C(=O)N[C@H](C(N)=O)C(C)C | substrate, SDS-PAGE |  | 24 h, pH 7.4, 37 °C |  | proteolytic stability | stable |
| CC(=O)N[C@H]1[C@@H](O[C@H](C)[C@H](NC(=O)[C@H](CC(=O)O)NC(=O)[C@@H]2CCCN2C(=O)C[C@H](C)NC(=O)[C@H](CO)NC(=O)[C@@H](NC(=O)[C@@H](NC(=O)CCNC(=O)[C@H](Cc2c[nH]cn2)NC(=O)[C@H](C)NC(=O)[C@@H](N)CS)C(C)C)[C@@H](C)O)C(=O)N[C@@H](CCCNC(=N)N)C(=O)N2CCC[C@H]2C(=O)N[C@@H](C)C(=O)N2CCC[C@H]2CC(=O)NCC(=O)N[C@@H](CO)C(=O)N[C@H](C(=O)N[C@@H](C)CC(=O)N2CCC[C@H]2C(=O)N2CCC[C@H]2C(N)=O)[C@@H](C)O)O[C@H](CO)[C@H](O)[C@@H]1O | UPLC | DPBS | 200 µM, added: proteinase K 5 µg/mL |  | half-life | 32 min |
| CC(C)C[C@H](NC(=O)[C@H](CCCCN)NC(=O)[C@H](CCCNC(=N)N)NC(=O)[C@@H](CC(C)C)NC(=O)[C@H](Cc1ccc(C(C)(C)C)cc1)NC(=O)[C@H](CC(=O)O)NC(=O)[C@H](CCCCN)NC(=O)[C@@H](CC(C)C)NC(=O)[C@H](CCCNC(=N)N)NC(=O)[C@H](CCC(N)=O)NC(=O)[C@@H](NC(=O)[C@@H](CC(C)C)NC(=O)[C@H](CCCNC(=N)N)NC(=O)[C@H](CCCCN)NC(=O)[C@H](Cc1ccc(-c2ccccc2)cc1)NC(=O)CN)C(C)C)C(=O)N[C@H](C(N)=O)C(C)C | substrate, SDS-PAGE |  | 24 h, pH 7.4, 37 °C |  | proteolytic stability | stable |
| CC(C)C[C@H](NC(=O)[C@H](C)NC(=O)[C@H](CC(N)=O)NC(=O)[C@H](CCC(=O)O)NC(=O)[C@@H](N)CCCCN)C(=O)N[C@@H](CC(C)C)C(=O)N[C@@H](CCCNC(=N)N)C(=O)N[C@@]1(C)CCCC=CCCC[C@@](C)(C(=O)N[C@@H](CC(=O)O)C(N)=O)NC(=O)[C@H](CC(=O)O)NC(=O)[C@H](CC(C)C)NC(=O)[C@H](CC(C)C)NC1=O | substrate, HPLC |  | 0.5 mM, pH 7.4, 37 °C, added: proteinase K 0.0005% |  | half-life | 2460 min |
| CC[C@H](C)[C@H](NC(=O)[C@H](Cc1c[nH]cn1)NC(=O)[C@H](CC(N)=O)NC(=O)[C@H](Cc1ccccc1)NC(=O)[C@H](Cc1ccc(O)cc1)NC(=O)[C@H](Cc1ccc(OCc2cn(CCOCCOCCOCCOC)nn2)cc1)NC(=O)[C@@H](NC(=O)[C@H](CCCNC(=N)N)NC(=O)CNC(=O)[C@H](CO)NC(=O)[C@H](CO)NC(=O)[C@H](CCCNC(=N)N)NC(=O)[C@H](CO)NC(=O)[C@H](CCSC)NC(=O)[C@H](CCCNC(=N)N)NC(=O)[C@H](CCCCN)NC(=O)[C@H](CCC(=O)O)NC(=O)[C@H](Cc1c[nH]c2ccccc12)NC(=O)CNC(=O)[C@@H]1CCCN1C(=O)[C@@H]1CCCN1C(=O)[C@H](CC(C)C)NC(=O)[C@@H](N)CCCCN)C(C)C)C(=O)N[C@H](C(=O)N[C@@H](CC(N)=O)C(=O)N[C@@H](C)C(=O)N[C@@H](CO)C(=O)N[C@@H](CCC(N)=O)C(=O)N[C@@H](Cc1ccccc1)C(=O)N[C@@H](CCC(=O)O)C(=O)N[C@@H](CCCNC(=N)N)C(=O)N1CCC[C@H]1C(=O)N[C@@H](CO)C(=O)NCC(=O)O)[C@@H](C)O | proteolysis, substrate, HPLC |  | room temperature | reference: PEGylated over non-PEGylated variant, negative = more stable | ln rate constant ratio | -0.3 ± 0.2 |
| CC[C@H](C)[C@H](NC(=O)[C@H](CCCNC(=N)N)NC(=O)[C@H](CCC(N)=O)NC(=O)[C@@H](NC(=O)[C@@H](NC(=O)[C@H](CCCNC(=N)N)NC(=O)[C@H](CCCCN)NC(=O)[C@H](Cc1ccccc1)NC(=O)CN)[C@@H](C)CC)C(C)C)C(=O)N[C@@H](CCCCN)C(=O)N[C@@H](CC(=O)O)C(=O)N[C@@H](Cc1ccccc1)C(=O)N[C@@H](CC(C)C)C(=O)N[C@@H](CCCNC(=N)N)C(=O)N[C@@H](CC(N)=O)C(=O)N[C@@H](CC(C)C)C(=O)N[C@H](C(N)=O)C(C)C | substrate, tricine SDS-PAGE |  | pH 8, 37 °C, added: peptide:protease 40:1 |  | stability time | < 24 h |
| O=C(Cc1ccc2ccccc2c1)N[C@@H](Cc1ccccc1)C(=O)N[C@@H](Cc1ccccc1)C(=O)O |  |  | 0.02 wt% hydrogelator |  | time to complete degradation | ≤ 4 h |
| CCCC[C@@H]1NC(=O)[C@H](C(C)C)NC(=O)[C@H](Cc2c[nH]cn2)NC(=O)[C@H]([C@@H](C)CC)NC(=O)[C@H](CC(=O)O)NC(=O)[C@@H](NC(=O)[C@H](CC(N)=O)NC(=O)[C@@H]2CCCN2C(=O)[C@H](CCC(=O)O)NC(=O)[C@@H](N)C(C)C)CSSC[C@@H](C(=O)N[C@@H](Cc2ccccc2)C(=O)N[C@@H](CCC(=O)O)C(=O)N[C@@H](CCCNC(=N)N)C(=O)N[C@@H](CC(C)C)C(N)=O)NC(=O)[C@H](CCC(=O)O)NC(=O)[C@H](Cc2c[nH]c3ccccc23)NC(=O)[C@H](CCC(=O)O)NC(=O)[C@H](Cc2c[nH]c3ccccc23)NC1=O | proteolytic stability | TBS | 50 µM, pH 7.5, 5% DMSO, added: proteinase K 10 µg/mL |  | half-life | 1.6 min |
| CC[C@H](C)[C@H](NC(=O)[C@H](Cc1c[nH]cn1)NC(=O)[C@H](CC(N)=O)NC(=O)[C@H](Cc1ccccc1)NC(=O)[C@H](Cc1ccc(O)cc1)NC(=O)[C@H](Cc1ccc(O)cc1)NC(=O)[C@@H](NC(=O)[C@H](CCCNC(=N)N)NC(=O)CNC(=O)[C@H](CO)NC(=O)[C@H](CO)NC(=O)[C@H](CCCNC(=N)N)NC(=O)[C@H](CCn1cc(COCCOCCOCCOC)nn1)NC(=O)[C@H](CCSC)NC(=O)[C@H](CCCNC(=N)N)NC(=O)[C@H](CCCCN)NC(=O)[C@H](CCC(=O)O)NC(=O)[C@H](Cc1c[nH]c2ccccc12)NC(=O)CNC(=O)[C@@H]1CCCN1C(=O)[C@@H]1CCCN1C(=O)[C@H](CC(C)C)NC(=O)[C@@H](N)CCCCN)C(C)C)C(=O)N[C@H](C(=O)N[C@@H](CC(N)=O)C(=O)N[C@@H](C)C(=O)N[C@@H](CO)C(=O)N[C@@H](CCC(N)=O)C(=O)N[C@@H](Cc1ccccc1)C(=O)N[C@@H](CCC(=O)O)C(=O)N[C@@H](CCCNC(=N)N)C(=O)N1CCC[C@H]1C(=O)N[C@@H](CO)C(=O)NCC(=O)O)[C@@H](C)O | proteolysis, substrate, HPLC |  | room temperature | reference: PEGylated over non-PEGylated variant, negative = more stable | ln rate constant ratio | -0.7 ± 0.4 |
| CC(C)C[C@H](NC(=O)[C@H](CCCCN)NC(=O)[C@H](CCCNC(=N)N)NC(=O)[C@@H](CC(C)C)NC(=O)[C@H](Cc1c[nH]c2ccccc12)NC(=O)[C@H](CC(=O)O)NC(=O)[C@H](CCCCN)NC(=O)[C@@H](CC(C)C)NC(=O)[C@H](CCCNC(=N)N)NC(=O)[C@H](CCC(N)=O)NC(=O)[C@@H](NC(=O)[C@@H](CC(C)C)NC(=O)[C@H](CCCNC(=N)N)NC(=O)[C@H](CCCCN)NC(=O)[C@H](Cc1ccc(C(C)(C)C)cc1)NC(=O)CN)C(C)C)C(=O)N[C@H](C(N)=O)C(C)C | substrate, SDS-PAGE |  | 24 h, pH 7.4, 37 °C |  | proteolytic stability | stable |
